Experimental data collected from several papers.
Parts stem from different laboratories: compare values within a part only. Substitutions count along the parent as printed.

Series 1 — technique: RNA Bind-n-Seq; form: RNA; matrix: in vitro; tested at: 200 nM; setting: whole 134-nt RNA, ends assumed; with: 150 mM KCl; baseline: input library; direction: higher = stronger binding; measurement: log2 enrichment
Target: Ras GTPase-activating protein-binding protein 1, full length (G3BP1, Homo sapiens, UniProt Q13283)
UniProt Q13283, sequence (whole entry, looked up): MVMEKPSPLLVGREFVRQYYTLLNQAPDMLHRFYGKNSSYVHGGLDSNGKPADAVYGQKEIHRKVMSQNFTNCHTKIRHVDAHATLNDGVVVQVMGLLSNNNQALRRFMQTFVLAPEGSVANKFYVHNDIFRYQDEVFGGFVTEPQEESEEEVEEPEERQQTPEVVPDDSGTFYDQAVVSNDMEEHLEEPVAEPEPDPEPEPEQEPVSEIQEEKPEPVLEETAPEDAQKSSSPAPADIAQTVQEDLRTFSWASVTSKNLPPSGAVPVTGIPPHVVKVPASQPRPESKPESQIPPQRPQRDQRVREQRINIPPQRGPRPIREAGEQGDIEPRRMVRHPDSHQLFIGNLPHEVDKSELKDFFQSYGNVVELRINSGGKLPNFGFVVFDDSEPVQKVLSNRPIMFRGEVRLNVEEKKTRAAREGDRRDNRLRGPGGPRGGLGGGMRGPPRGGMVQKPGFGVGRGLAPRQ
Constant ends, left off below: GGGAGUUCUACAGUCCGACGAUC … UGGAAUUCUCGGGUGUCAAGG
Sequence = CUCAAGUCCUGUGCUACACAUCGUAUGUACCGAAUCGGUUGGGUUGGGUUGGGAAAGUAUUAUGUUACGCCGUUCGGAUCUGCACUUCCA; result = 0.785
Sequence = AGUCCUGUGCUACACAUCGUAUGUACCGAAUCGGGGCCCCGGCCCCGGGGCCCCGGGGAAAGUAUUAUGUUACGCCGUUCGGAUCUGCAC; result = -1.62
Sequence = CACAGACAACACGCACCCACACAGACACAGAGGGAAGGGGUUGGGAUGGGGACAGGGUGCACAGCAGGGCGGGGUAGGACCCCAGAAACU; result = 1.94
Sequence = UUAAUGAUAUAAGUAGAGAGUAGUAUCCUGGUGGAGUUGUAACCACUAUUUUUGUUUUCUAGAUCCCUAUGGUUCAGGAGGCCAGAAAUU; result = -0.866
Sequence = CAAGUCCUGUGCUACACAUCGUAUGUACCGAAUCAAACCCAAAUUUAAAUUUAAAAAAGUAUUAUGUUACGCCGUUCGGAUCUGCACUUC; result = -0.217
Sequence = AAGUCCUGUGCUACACAUCGUAUGUACCGAAUCGGGGAGGGGAAAAAGGGGAGGGGAAAGUAUUAUGUUACGCCGUUCGGAUCUGCACUU; result = 0.843
Sequence = CCUCAAGUCCUGUGCUACACAUCGUAUGUACCGAAUCGGAGGUGGAAAAAGGAAAGUAUUAUGUUACGCCGUUCGGAUCUGCACUUCCAG; result = -0.151
Sequence = UGUGCUACACAUCGUAUGUACCGAAUCGGGGCCCCCCCGGGCCCCCCCGGGCCCCCCCGGGGAAAGUAUUAUGUUACGCCGUUCGGAUCU; result = -1.71
Sequence = UGCUUGUGUUUCUGACAGAUUCACUGCCUUCUGAGGACUUGGAUCCUGCCGAUCCCCCGAUCUCGGUAACUGUUGGCCUGAUCUGGCUGU; result = 0.538

Series 2 — technique: DHFR PCA, deep sequencing; matrix: yeast; with: (+)-ABA 0.39 µM; baseline: wild-type fitted maximum; direction: higher = stronger binding; measurement: relative binding score
Target: ABI1, truncated, D143A, DHFR fusion (Arabidopsis thaliana)
Setting: methotrexate growth selection, single substitutions
Starting sequence: PYL1, truncated, DHFR fusion (Arabidopsis thaliana); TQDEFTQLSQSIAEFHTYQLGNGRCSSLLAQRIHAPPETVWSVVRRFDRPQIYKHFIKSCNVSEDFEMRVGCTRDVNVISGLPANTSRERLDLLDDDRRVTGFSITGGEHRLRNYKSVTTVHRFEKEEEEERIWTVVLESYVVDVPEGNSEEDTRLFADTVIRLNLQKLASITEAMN
Substitution = R45I; result = -1.88%
Substitution = I105P; result = 8.77%
Substitution = I133Y; result = 40.2%
Substitution = R88E; result = 21.7%
Substitution = E67N; result = 26.1%
Substitution = E89I; result = 15%
Substitution = R49G; result = 4.32%
Substitution = W134V; result = 35.3%
Substitution = F157G; result = -13.4%
Substitution = D92T; result = -10.6%
Substitution = R132N; result = 64.8%
Substitution = G81E; result = -1.23%
Substitution = P36L; result = 14.8%
Substitution = K54F; result = -21.2%
Substitution = Y18K; result = 2.65%
Substitution = G81V; result = 1.09%
Substitution = S27D; result = 7.38%
Substitution = K126V; result = 60.9%
Substitution = S104A; result = -10.3%
Substitution = H34T; result = 4.43%
Substitution = F15D; result = -7.36%

Series 3 — target: CCND2, cyclin fold, Cln2 fusion (human); technique: yeast growth competition, sequencing; matrix: yeast; setting: weak parent motif; baseline: not given; direction: higher = stronger binding; measurement: normalised enrichment score
Starting sequence: WEE1 docking peptide (human); HKTFRKLRLFDTP; partner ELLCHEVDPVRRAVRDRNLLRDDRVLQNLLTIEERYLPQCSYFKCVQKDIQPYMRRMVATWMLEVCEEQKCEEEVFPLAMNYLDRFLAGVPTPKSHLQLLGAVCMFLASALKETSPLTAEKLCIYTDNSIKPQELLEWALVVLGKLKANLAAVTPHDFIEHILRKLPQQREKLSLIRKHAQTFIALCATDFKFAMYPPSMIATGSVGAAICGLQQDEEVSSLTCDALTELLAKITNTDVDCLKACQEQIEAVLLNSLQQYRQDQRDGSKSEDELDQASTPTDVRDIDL
Substitution = HHTFRKLRLFDTP [K2H]; result = 0.0459
Substitution = HKTFRKHRLFDTP [L7H]; result = -0.215
Substitution = HKTFRKLRLFDYP [T12Y]; result = -0.0353
Substitution = HKTFRILRLFDTP [K6I]; result = 0.0918
Substitution = HKEFRKLRLFDTP [T3E]; result = -0.482
Substitution = HKTFRQLRLFDTP [K6Q]; result = 0.305
Substitution = HKTFRKLRLFDTW [P13W]; result = -0.164
Substitution = HKTFRKLRLFDTF [P13F]; result = -0.0171
Substitution = HKTFRELRLFDTP [K6E]; result = 0.427
Substitution = HMTFRKLRLFDTP [K2M]; result = -0.191
Substitution = VKTFRKLRLFDTP [H1V]; result = -0.568
Substitution = HKTFRKPRLFDTP [L7P]; result = -0.248
Substitution = HKTFRALRLFDTP [K6A]; result = 0.129
Substitution = HKTFEKLRLFDTP [R5E]; result = 0.686
Substitution = HKGFRKLRLFDTP [T3G]; result = 0.867
Substitution = HKTFRGLRLFDTP [K6G]; result = 0.0151
Substitution = HKTFRSLRLFDTP [K6S]; result = 0.161
Substitution = HKTFRKLRQFDTP [L9Q]; result = 0.187
Substitution = HKTFRKNRLFDTP [L7N]; result = -0.0272
Substitution = HVTFRKLRLFDTP [K2V]; result = -0.28
Substitution = HKTFRKLELFDTP [R8E]; result = 0.39
Substitution = HKTFRKLRLFDWP [T12W]; result = 0.292
Substitution = HKSFRKLRLFDTP [T3S]; result = -0.868
Substitution = HKTFRKLRFFDTP [L9F]; result = 0.022
Substitution = HKTFRKLRLFDRP [T12R]; result = 0.202

Mixed results
Sequence = GGAGTGCGCACTCC (dsDNA); target = KAT6A 1-85 R79A (Homo sapiens, UniProt Q92794); assay = ITC; test system = double-stranded DNA, one strand shown; measurement = binding; result = binds
